Assay results collected from several papers.
Lines come from different studies, so protocols differ. ± marks the error that the study gave.

CC(C)(C)c1cc(-n2nc3ccccc3n2)c(O)c(C(C)(C)C)c1
daily dermal uptake, percentile (exposure assessment; human, age 1-2 years; concentration not given, spray sunscreen, 95th percentile): 24.4 ng/kg body weight/day

O=C(c1ccc(F)c(F)c1Nc1ccc(I)cc1F)N1CC(O)([C@@H]2CCCCN2)C1
treatment-related serious AE (patients aged 6 to sample A years; oral, dose not given): 7%

COc1cc(-c2[o+]c3cc(O)cc(O)c3cc2O[C@@H]2O[C@H](CO)[C@@H](O)[C@H](O)[C@H]2O)cc(OC)c1O
absorption maximum (buffer without protein; 50 µM, pH 7): 571 nm

N[C@@H]1c2ccccc2OC12CCN(c1cnc3c(N4CCCc5ncccc54)n[nH]c3n1)CC2
dose-limiting toxicity (advanced metastatic solid tumour patients; oral, 50 mg once daily, cycle 1, 21 days): 0%

CC1(C)c2nc(-c3ccc(F)cc3)c(Nc3ccc(F)cc3)n2CCN1C(=O)CN
concentration at 24 h (NMRI mouse Plasmodium berghei-infected, blood; oral, 2 mg/kg, 24 h, monotherapy): 12 nM

COc1ccc(CCC2CCCC(CCc3ccc(OC)cc3)N2C[C@@H](O)CO)cc1.Cl (stereo in doubt)
APD90 change (rabbit Purkinje fibres; 0.3 µM, cycle length 1 s; reference: baseline): 33.9 ± 4.8%

NC(=O)[C@H]1CCN(c2ncnc(N)c2F)C[C@@H]1N1CCC[C@@H](Nc2cc(Cl)cc(C(F)(F)F)c2)C1=O
grade ≥3 hyponatraemia (B-cell malignancy patients; oral, 410 mg twice daily, dose): 0%

CC[C@H](C)[C@H](NC(=O)[C@H](Cc1ccccc1)NC(=O)[C@H](CCC(=O)O)NC(=O)[C@H](CCCNC(=N)N)NC(=O)[C@H](C)NC(=O)[C@H](C)NC(=O)[C@H](CCC(N)=O)NC(=O)[C@H](CCC(=O)O)NC(=O)[C@H](CCC(=O)O)NC(=O)[C@H](CC(C)C)NC(=O)[C@H](Cc1ccc(O)cc1)NC(=O)[C@H](CO)NC(=O)[C@H](CO)NC(=O)[C@@H](NC(=O)[C@H](CC(=O)O)NC(=O)[C@H](CO)NC(=O)[C@@H](NC(=O)[C@H](Cc1ccccc1)NC(=O)[C@@H](NC(=O)CNC(=O)[C@H](CCC(=O)O)NC(=O)[C@H](C)NC(=O)CCc1cnc[nH]1)[C@@H](C)O)[C@@H](C)O)C(C)C)C(=O)N[C@@H](C)C(=O)N[C@@H](Cc1c[nH]c2ccccc12)C(=O)N[C@@H](CC(C)C)C(=O)N[C@H](C(=O)N[C@@H](CCCNC(=N)N)C(=O)NCC(=O)N[C@@H](CCCNC(=N)N)C(=O)N[C@@H](CCCCNC(=O)COCCOCCNC(=O)COCCOCCNC(=O)CC[C@H](NC(=O)CCCCCCCCCCCCCCCCC(=O)O)C(=O)O)C(=O)NCC(=O)NCC(=O)N[C@@H](CO)C(=O)N[C@@H](CCCCNC(=O)[C@H](CCCCNc1c(NCCCCCN(O)C(=O)CCC(=O)NCCCCCN(O)C(=O)CCC(=O)NCCCCCN(O)C(C)=O)c(=O)c1=O)Nc1c(NCCCCCN(O)C(=O)CCC(=O)NCCCCCN(O)C(=O)CCC(=O)NCCCCCN(O)C(C)=O)c(=O)c1=O)C(=O)O)C(C)C [zirconium-89 labelled]
tissue uptake (ex vivo gamma counting; male Sprague-Dawley rat, femur; intravenous, 1 nmol, 24 h): 0.231 %ID/g

CN1CCN(S(=O)(=O)c2cc([N+](=O)[O-])ccc2N(CCOS(C)(=O)=O)CCOS(C)(=O)=O)CC1
concentration (NSG mice female, brain; intraperitoneal, 25 mg/kg, 0.5 h): 57 nM

O=c1ccc2ccc3occc3c2o1
accuracy (post-procedure stability; rat plasma; 1000 ng/mL, 3 h, room temperature): 107%

O=C(O)CCCOc1ccc(F)cc1-c1cc(-c2ccccc2C(F)(F)F)n(-c2ccccc2)n1
activated partial thromboplastin time (Crl:CD(SD) rats, female, plasma; iv, 25 µg/kg, 14 days): 17.6 s

CN1CC[C@@H](c2c(O)cc(O)c3c(=O)cc(-c4ccc(C(F)(F)F)cc4Cl)oc23)[C@@H]1CO
patients with adverse event (measured: Epistaxis; AML; oral, 200 mg, intermittent dosing): 20%

CC(C)CC(=O)OC[C@H]1O[C@@](C#N)(c2ccc3c(N)ncnn23)[C@H](O)[C@@H]1O
recovery (plasma protein binding; monkey plasma; 9 µM, time not given): 103%

C[C@]1(CO)Cc2ncn(-c3ccc(C#N)c(Cl)c3)c2C(=O)O1
drug-related Hyperhidrosis incidence (healthy humans; concentration not given, multiple dose part total): 2.2%

COc1cc2c(Oc3ccc4[nH]c(C)cc4c3F)ccnc2cc1OCC1(N)CC1
incidence of adverse event (measured: grade 3 hand-foot syndrome; paediatric high-risk refractory sarcoma; whole group): 5.9%

O=C(O)CCC(CP(=O)(O)O)C(=O)O (stereo not drawn)
stability (processed derivatized rat plasma; at least 18 h, 10 °C, autosampler): stable

CC(C)Nc1ccnc(Nc2cccc(-c3cccnc3)c2)n1
blood chemistry (measured: sodium; mouse, blood; intraperitoneal, 3 mg/kg): 156 mmol/L

COc1ncccc1-c1cnn2ccc(N3CCN(C(=O)OC(C)C)CC3)nc12
drug concentration (rat, thermal hyperalgesia model, brain; oral, 30 mg/kg, 180 min): 8500 nM

CCCCCOc1ccc(-c2ccc(-c3ccc(C(=O)N[C@H]4C[C@@H](O)[C@@H](OCC[N+](C)(C)C)NC(=O)[C@@H]5[C@@H](O)[C@@H](C)CN5C(=O)[C@H]([C@@H](C)O)NC(=O)[C@H]([C@H](O)[C@@H](O)c5ccc(O)cc5)NC(=O)[C@@H]5C[C@@H](O)CN5C(=O)[C@H]([C@@H](C)O)NC4=O)cc3)cc2)cc1
Cmin (adult patients not in ICU, plasma; intravenous, 400 mg loading dose, after first dose, geometric mean): 2190 ng/mL

C=CCNc1c(O)cc2c(O)c1C[C@@H](C)C[C@H](OC)[C@H](O)[C@@H](C)/C=C(\C)[C@H](OC(N)=O)[C@@H](OC)/C=C\C=C(/C)C(=O)N2
patients with vomiting TEAE (unresectable or metastatic STS, GIST, other; intravenous, 225 mg/m^2): 33%

CC(=O)c1c(C)c2cnc(Nc3ccc(C4CCN(CCS(C)(=O)=O)CC4)cn3)nc2n(C2CCCC2)c1=O
AUC(0-t) (beagle dog, male, plasma; oral, 6 mg/kg, day 28, repeated dosing 4 weeks): 555 ng·h/mL

COc1ccc(-c2c(-c3ccc(C#N)c(F)c3)nc(N3CCC(N)CC3)n(C)c2=O)cc1F
treatment-related adverse event incidence (measured: Diarrhea; human patients; oral, dose not given, grade 3 to 4, dose escalation, NG): 0%

C=CC(=O)N1CC[C@H](n2nc(C#Cc3cc(OC)cc(OC)c3)c3c(N)ncnc32)C1
adverse drug reaction incidence (patients with advanced solid tumours; oral, dose not given, Nausea, any grade, QD, all patients): 16.3%

CCc1ccc(CC/C=C/c2ccc3c(c2)C(=O)CC3)cc1
platelet distribution width (Sprague-Dawley rat, male, blood; oral, 120 mg/kg/day, 14 days): 50.1%

C[C@@H]1NC(=O)[C@H](CCCCNC(=O)CO/N=C/C(=O)NCCCC[C@@H]2NC(=O)[C@@H](Cc3ccccc3)NC(=O)[C@H](CC(=O)O)NC(=O)CNC(=O)[C@H](CCCNC(=N)N)NC2=O)NC(=O)CNC(=O)[C@@H]2CCCN2C(=O)[C@H](CCCCNC(=O)CO/N=C/C(=O)NCCCC[C@@H]2NC(=O)[C@@H](Cc3ccccc3)NC(=O)[C@H](CC(=O)O)NC(=O)CNC(=O)[C@H](CCCNC(=N)N)NC2=O)NC(=O)[C@H](CCCCNC(=O)CN2CCCNCCNCCCNCC2)NC(=O)[C@H](CCCCNC(=O)CO/N=C/C(=O)NCCCC[C@@H]2NC(=O)[C@@H](Cc3ccccc3)NC(=O)[C@H](CC(=O)O)NC(=O)CNC(=O)[C@H](CCCNC(=N)N)NC2=O)NC(=O)CNC(=O)[C@@H]2CCCN2C(=O)[C@H](CCCCNC(=O)CO/N=C/C(=O)NCCCC[C@@H]2NC(=O)[C@@H](Cc3ccccc3)NC(=O)[C@H](CC(=O)O)NC(=O)CNC(=O)[C@H](CCCNC(=N)N)NC2=O)NC1=O [copper-64 labelled]
tissue uptake (biodistribution after PET; mouse, U-87 MG tumour xenograft, liver; intravenous, 24 h): 6.69 ± 0.41 %ID/g

CO[C@H]1C[C@@H]2CC[C@@H](C)[C@@](O)(O2)C(=O)C(=O)N2CCCC[C@H]2C(=O)O[C@H]([C@H](C)C[C@@H]2CC[C@@H](OC(=O)NCCOCCOCCOCCOCCOCCOCCOCCOCCC(=O)N3CCc4cc(Cn5nc(-c6ccc7oc(N)nc7c6)c6c(N)ncnc65)ccc4C3)[C@H](OC)C2)C[C@@H](O)[C@H](C)/C=C(\C)[C@@H](O)[C@@H](OC)C(=O)[C@H](C)C[C@H](C)/C=C/C=C/C=C/1C
pneumonia AE leading to dose reduction (patients with advanced solid tumours; intravenous, 16 mg weekly, any grade): 0%

CC1(C)C(/C=C(\Cl)C(F)(F)F)C1C(=O)OC(C#N)c1cccc(Oc2ccccc2)c1 (stereo not drawn)
enzyme contribution to clearance (measured: CYP2B6; human, age 1 year): 0.32%

A few entries again:
N[C@@H]1c2ccccc2OC12CCN(c1cnc3c(N4CCCc5ncccc54)n[nH]c3n1)CC2
dose-limiting toxicity (advanced metastatic solid tumour patients; oral, 50 mg once daily, cycle 1, 21 days): 0%

CN1CC[C@@H](c2c(O)cc(O)c3c(=O)cc(-c4ccc(C(F)(F)F)cc4Cl)oc23)[C@@H]1CO
patients with adverse event (measured: Epistaxis; AML; oral, 200 mg, intermittent dosing): 20%

O=c1ccc2ccc3occc3c2o1
accuracy (post-procedure stability; rat plasma; 1000 ng/mL, 3 h, room temperature): 107%

CCc1ccc(CC/C=C/c2ccc3c(c2)C(=O)CC3)cc1
platelet distribution width (Sprague-Dawley rat, male, blood; oral, 120 mg/kg/day, 14 days): 50.1%
